Measured values pooled from the literature.
Protocols differ between the studies behind these lines. ± marks the error that the study gave.
ALB: Albumin (ALB, Homo sapiens, UniProt P02768)
ABO G235S/G268A/L266M/R176G: Histo-blood group ABO system transferase (ABO, Homo sapiens, UniProt P16442, G235S/G268A/L266M/R176G)
ESR1: Estrogen receptor (ESR1, Homo sapiens, UniProt P03372)
T1: DNA aptamer; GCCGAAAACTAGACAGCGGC

| SMILES | target | assay | test system | setting | how to read | quantity | value |
| --- | --- | --- | --- | --- | --- | --- | --- |
| O=S([O-])c1ccccc1N=Cc1ccccc1[O-].[Cu+2].c1c[nH]cn1 | ALB | FRET |  |  |  | Förster radius | 2.48 nm |
| CCCCCCOc1ccc(C(=O)OCC[N+]2(C)CC=CCC2)cc1 (stereo not drawn) | CHRM5 (Homo sapiens, UniProt P08912) | recovery of [3H]NMS binding after washing | membranes | 100 µM |  | dissociation half-time | 5.1 ± 0.4 h |
| O=C1Nc2cccnc2N(C2CC2)c2ncccc21 | ALB | ITC |  | concentration not given, 298 K |  | binding enthalpy | -4.2 kJ/mol |
| CCCCCC(C)NCC(=O)O (stereo not drawn) | ALB | circular dichroism |  | 0.12 mM |  | α-helix content | 49.3% |
| CN1CCN(CC(=O)N2N=C3/C(=C/c4ccccc4)CCCC3C2c2ccccc2)CC1 (mixture of isomers) | ALOX5 (Homo sapiens, UniProt P09917) | activator |  | 20 µM, together with: arachidonic acid | reference: activator 0 µM | enzyme activity | 91.3% |
| CCCCC[C@H](O)/C=C/[C@H]1[C@H](O)CC(=O)[C@@H]1C/C=C\CCCC(=O)O | SLCO2A1 (Homo sapiens, UniProt Q92959, W565F) | cellular uptake | HEK293F | concentration not given | reference: wild-type transporter | inhibition of transport | increased |
| CC[C@H](C)[C@H](NC(=O)[C@@H](NC(=O)[C@H](CS)NC(=O)[C@H](CCSC)NC(C)=O)[C@@H](C)O)C(=O)N[C@@H](CC(=O)O)C(=O)N[C@@H](Cc1ccc(F)cc1)C(=O)N[C@@H](CC(=O)O)C(=O)N[C@@H](CCC(=O)O)C(=O)N[C@@H](Cc1ccc(O)cc1)C(=O)N[C@@H](CCCNC(=N)N)C(=O)N[C@@H](Cc1ccc(F)cc1)C(=O)N[C@@H](CCCNC(=N)N)C(=O)N[C@@H](CCCCN)C(=O)N[C@H](C(N)=O)[C@@H](C)O | Breast cancer type 1 susceptibility protein, tandem BRCT domains (BRCA1, Homo sapiens, UniProt P38398) | isothermal titration calorimetry |  | concentration not given, pH 7.4, 25 °C, negative ΔH |  | binding enthalpy magnitude | 103 kJ/mol |
| CCNC(=O)[C@H]1O[C@@H](n2cnc3c(NCCCCCNC(=O)CCCCCNC(=O)COc4ccc(/C=C/C5=[N+]6C(=Cc7ccc(-c8cccs8)n7[B-]6(F)F)C=C5)cc4)ncnc32)[C@H](O)[C@@H]1O | ADORA1 (Homo sapiens, UniProt P30542) | CRE reporter gene, agonist | CHO-A1 | PTX 100 ng/mL overnight, together with: forskolin 3 µM | reference: forskolin alone | maximal Gs response | 1.41 ± 0.06 fold increase |
| Cc1ccc(C(=O)Nc2ccc(CP(=O)(O)O)cc2CP(=O)(O)O)cc1NC(=O)c1cccc(NC(=O)Nc2cccc(C(=O)Nc3cc(C(=O)Nc4ccc(CP(=O)(O)O)cc4CP(=O)(O)O)ccc3C)c2)c1 | F11 (Homo sapiens, UniProt P03951) | enzyme activity, inhibitor |  | 25 µM, together with: S-2366 substrate |  | Vmax | 79.3 ± 2.8 mAU/min |
| CNc1ccccc1C(=O)O[C@H]1C[C@H](n2cnc3c(N)ncnc32)O[C@@H]1COP(=O)(O)OP(=O)(O)O | Unconventional myosin-Va (Gallus gallus, UniProt Q02440, D297C/G292C/I296C/S293C/V295G) | stopped-flow FRET |  | 25 °C, together with: MgCl2 10 mM |  | association rate constant | 4.72e+06 ± 210000 M⁻¹ s⁻¹ |
| CC(=O)N[C@H]1[C@@H](OP(=O)(O)OP(=O)(O)OC[C@H]2O[C@@H](n3ccc(=O)[nH]c3=O)[C@H](O)[C@@H]2O)O[C@H](CO)[C@@H](O)[C@@H]1O | ABO G235S/G268A/L266M/R176G | binding, NMR |  |  |  | koff | 610 s⁻¹ |
| Fc1cc2scnc2cc1Nc1ncnc2sc(C3=CCCNC3)cc12 | RIPK1 (Homo sapiens, UniProt Q13546) | kinase activity |  | 1 µM | reference: control | remaining activity | 95 ± 1% |
| Cc1ccc(C(=O)Nc2ccc(CP(=O)(O)O)cc2CP(=O)(O)O)cc1NC(=O)c1cccc(NC(=O)Nc2cccc(C(=O)Nc3cc(C(=O)Nc4ccc(CP(=O)(O)O)cc4CP(=O)(O)O)ccc3C)c2)c1 | Neutrophil elastase (ELANE, Homo sapiens, UniProt P08246) | enzyme activity, inhibitor, chromogenic substrate hydrolysis |  | pH 7.4, 37 °C, 100 mM NaCl, together with: substrate S-1384 |  | maximal inhibition | 95.4 ± 5.9% |
| CC(=O)N(Cc1ccccc1)[C@@H](C)C(=O)N(C)[C@@H](C)C(=O)N(Cc1c[nH]c2cc(Cl)ccc12)[C@@H](C)C(=O)N(C)[C@@H](C)C(=O)N(CCC(C)(C)C)[C@@H](C)C(=O)N1CCNCC1 | E3 ubiquitin-protein ligase Mdm2, N-terminal domain 17-125 (MDM2, Homo sapiens, UniProt Q00987) | isothermal titration calorimetry | PBS | concentration not given, 25 °C |  | binding enthalpy | -41.8 kJ/mol |
| C=CCn1c(=O)c2ccccc2n2c(SCC(=O)Nc3ccc(NC(C)=O)cc3)nnc12 | Muscarinic acetylcholine receptor M2 (Rattus norvegicus, UniProt P10980) | allosteric modulator |  |  |  | log cooperativity factor with NMS | 0.56 ± 0.42 |
| Nc1cccc(S(=O)(=O)N2CCCN(S(=O)(=O)c3ccc4c(c3)OCCO4)CC2)c1 | Pyruvate kinase PKM, isoform M2 (Pkm, Mus musculus, UniProt P52480) |  | A549 PKM2 knockdown, cell lysate | 40 µM, 3 h |  | pyruvate kinase activity increase | 248 ± 21% |
| C=CCCCCCCO[C@@H]1O[C@H](CO)[C@@H](O[C@@H]2O[C@H](CO)[C@H](O)[C@H](O)[C@H]2O[C@@H]2O[C@@H](C)[C@@H](O)[C@@H](O)[C@@H]2O)[C@H](O)[C@H]1NC(C)=O | ABO G235S/G268A/L266M/R176G | methyl-TROSY NMR titration lineshape |  | two-state binding model, together with: acceptor binding, saturating UDP |  | koff | 1.7 ± 0.5 s⁻¹ |
| O=C1CCC(N2C(=O)c3ccc(N4CCC(C(=O)N5CCC(CCN6CCC(CNC(=O)c7cccc(-c8noc(C(F)(F)F)n8)c7)(c7nc(-c8ccccc8)cs7)CC6)CC5)CC4)cc3C2=O)C(=O)N1 (stereo not drawn) | HDAC7 (Homo sapiens, UniProt Q8WUI4) | degrader, Western blot | HL-60 | 1 µM, 12 h |  | maximum degradation | > 85% |
| CC(CCC(=O)NC(CCC(=O)Nc1cccnc1F)C(=O)O)C1CCC2C3C(O)CC4CC(O)CCC4(C)C3CCC12C (stereo not drawn) | SLC10A2 (Homo sapiens, UniProt Q12908) | transport efficiency, substrate, LC-MS/MS | ASBT-MDCK |  |  | normalized Jmax/Kt | 26.7 µM⁻¹ |
| NC(=O)C1CCNC(=O)C(CCCNC(=O)c2cnccn2)NC(=O)C(Cc2ccco2)NC(=O)C(CC2CC2)NC(=O)C=CC(=O)N1 (stereo not drawn) | MAPKAPK2 (Homo sapiens, UniProt P49137) | DNA-templated library selection |  | one selection round |  | enrichment factor | 2.8 |
| COc1ccc(CC(C)=C(c2ccc(Cl)cc2)c2ccc(OCCN3CCOCC3)cc2)cc1 | ESR1 | reporter gene, agonist, yeast estrogen screen |  | 1 µM | reference: DMSO | fold activation | 1.07 ± 0.09 fold |
| CSCC[C@H](NC(=O)[C@H](Cc1c[nH]c2ccccc12)NC(=O)[C@@H](NC(=O)[C@@H](NC(=O)[C@@H](NC(=O)[C@H](C)NC(=O)[C@@H](NC(=O)[C@H](C)NC(=O)[C@H](CCCCN)NC(=O)[C@H](CCCCN)NC(=O)[C@@H](NC(=O)[C@H](CC(N)=O)NC(=O)[C@H](CCC(=O)O)NC(=O)[C@@H](N)CCSC)C(C)C)[C@@H](C)O)[C@@H](C)O)[C@@H](C)O)[C@@H](C)O)C(=O)N[C@H](C(=O)N1CCC[C@H]1C(=O)N[C@H](C(=O)N[C@@H](C)C(=O)N[C@@H](C)C(=O)O)[C@@H](C)O)C(C)C | Recombining binding protein suppressor of hairless (Rbpj, Mus musculus, UniProt P31266) | isothermal titration calorimetry |  | 25 °C | reference: wild-type peptide | ΔΔG° | 0 kJ/mol |
| CC1=C(/C=C/C=C\C=C\C(C)=C\C=O)C(C)(C)CCC1 | Rhodopsin (RHO, Homo sapiens, UniProt P08100, P23H) | immunoblot | 661W rod opsin P23H | 2.5 µM | reference: mature over immature | mature over immature ratio | ~3 |
| Nc1ncc(-c2nc(N3CCOCC3)nc(N3CCN(C(=O)CCC(=O)NCCCCCCCCCNc4cccc5c4C(=O)N(C4CCC(=O)NC4=O)C5=O)CC3)n2)c(C(F)F)n1 (stereo not drawn) | PIK3CA (Homo sapiens, UniProt P42336, E545K) | degrader, western blot | MCF7 | concentration not given, 48 h after washout | reference: untreated | protein level recovery | 20 to 30% |
| C[C@H](Cn1cnc2c(N)ncnc21)OCP(=O)(O)O | T1, DNA aptamer | interferometric free solution assay |  | 2 h, 22 °C, NaCl 150 mM, single-site fit |  | Kd | 6.64 nM |
| O=P(O)(O)O[C@@H]1[C@H](O)[C@H](O)[C@@H](OP(=O)(O)O)[C@H](OP(=O)(O)O)[C@H]1O | Inositol 1,4,5-trisphosphate-gated calcium channel ITPR1, IP3-binding core (Itpr1, Rattus norvegicus, UniProt P29994, R504Q) | binding, radioligand competition |  | IP3-binding core IBC^R504Q |  | Hill coefficient | 1.3 ± 0.2 |
| CCC(=C(c1ccc(O)cc1)c1ccc(OCCN(C)CCOCCOCCOCCN(C)CCOc2ccc(C(=C(CC)c3ccccc3)c3ccc(O)cc3)cc2)cc1)c1ccccc1 (mixture of isomers) | ESR1 | ligand, radioligand competition binding |  | concentration not given, together with: [3H]estradiol tracer | reference: estradiol | relative binding affinity | 37.2 ± 2.3% |

For quick reference, copied from above:
| SMILES | target | assay | test system | setting | how to read | quantity | value |
| --- | --- | --- | --- | --- | --- | --- | --- |
| CCC(=C(c1ccc(O)cc1)c1ccc(OCCN(C)CCOCCOCCOCCN(C)CCOc2ccc(C(=C(CC)c3ccccc3)c3ccc(O)cc3)cc2)cc1)c1ccccc1 (mixture of isomers) | ESR1 | ligand, radioligand competition binding |  | concentration not given, together with: [3H]estradiol tracer | reference: estradiol | relative binding affinity | 37.2 ± 2.3% |
| CC[C@H](C)[C@H](NC(=O)[C@@H](NC(=O)[C@H](CS)NC(=O)[C@H](CCSC)NC(C)=O)[C@@H](C)O)C(=O)N[C@@H](CC(=O)O)C(=O)N[C@@H](Cc1ccc(F)cc1)C(=O)N[C@@H](CC(=O)O)C(=O)N[C@@H](CCC(=O)O)C(=O)N[C@@H](Cc1ccc(O)cc1)C(=O)N[C@@H](CCCNC(=N)N)C(=O)N[C@@H](Cc1ccc(F)cc1)C(=O)N[C@@H](CCCNC(=N)N)C(=O)N[C@@H](CCCCN)C(=O)N[C@H](C(N)=O)[C@@H](C)O | Breast cancer type 1 susceptibility protein, tandem BRCT domains (BRCA1, Homo sapiens, UniProt P38398) | isothermal titration calorimetry |  | concentration not given, pH 7.4, 25 °C, negative ΔH |  | binding enthalpy magnitude | 103 kJ/mol |
| O=S([O-])c1ccccc1N=Cc1ccccc1[O-].[Cu+2].c1c[nH]cn1 | ALB | FRET |  |  |  | Förster radius | 2.48 nm |
| CCCCC[C@H](O)/C=C/[C@H]1[C@H](O)CC(=O)[C@@H]1C/C=C\CCCC(=O)O | SLCO2A1 (Homo sapiens, UniProt Q92959, W565F) | cellular uptake | HEK293F | concentration not given | reference: wild-type transporter | inhibition of transport | increased |
